Measured values pooled from the literature.
Lines come from different studies, so protocols differ. ± gives the spread as reported.

SMILES | assay | test system | setting | tissue uptake
O=C([O-])CN1CCN(CC(=O)[O-])CCN(CC(=O)NC[C@H]2CC[C@H](C(=O)N[C@H](Cc3cnc4ccccc4c3)C(=O)NCCCC[C@H](NC(=O)N[C@@H](CCC(=O)O)C(=O)O)C(=O)O)CC2)CCN(CC(=O)[O-])CC1.[64Cu+2] | ex vivo gamma counting | 22Rv1 tumour-bearing mice, brain | intravenous, 0.74 MBq, 24 h post-injection | 0.66 %ID/g
Cc1cc(C)n(CCN(CCN)CCCCCCNC(=O)[C@@H](N)Cc2c[nH]c3ccccc23)n1.[99Tc+].[C-]#[O+].[C-]#[O+].[C-]#[O+] |  | BALB/c nude mice, A549 xenograft, bone | intravenous, 15 min | 0.74 ± 0.22 %IA/g
COc1ccc(Nc2nc(Nc3ccc(OCCOCC[18F])cc3)ncc2Br)cc1 |  | ICR mice, S180 tumour-bearing, brain | intravenous, 370 kBq, 5 min | 2.52 ± 0.44 %ID/g
O=C(NCC1OC2CCC=CCCC2O1)c1ccc(COCCOCCOCC[18F])cc1 (stereo not shown) |  | healthy female BALB/c nude mice, small intestine | intravenous, 7.4 MBq per mouse, 15 min | 10.3 ± 1.1 %ID/g
N#C[C@@H]1CCCN1C(=O)CNC(=O)c1ccnc2ccc(OCCCN3CCN(C(=O)CCc4ccc(O)c(CN5CCN6CC(=O)[O][Al-]([18F])([O]C(=O)C5)[O]c5ccc(CCC(=O)N7CCN(CCCOc8ccc9nccc(C(=O)NCC(=O)N%10CCC[C@H]%10C#N)c9c8)CC7)cc5C6)c4)CC3)cc12 (stereo partly shown) |  | BALB/c nude mice, U-87 MG xenograft, brain | 1 h | 0.16 ± 0.02 %ID/g
O=C(NCC1OC2CCC=CCCC2O1)c1ccc([18F])nc1 (stereo not shown) |  | female BALB/c nude mice, LS174T tumour, blood | intravenous, 60 min, together with: CC49-tetrazine 24 h before | 0.9 ± 0.2 %ID/g
CC(C)C[C@H](NC(=O)[C@@H](CCCCNC(=O)[C@@H](Cc1ccccc1)NC(=O)CCCCCCCNC(=O)CN1CCN(CC(=O)O)CCN(CC(=O)O)CCN(CC(=O)O)CC1)NC(=O)[C@H](Cc1ccc(O)cc1)NC(=O)[C@H](CO)NC(=O)[C@H](Cc1c[nH]c2ccccc12)NC(=O)[C@H](Cc1c[nH]cn1)NC(=O)[C@@H]1CCC(=O)N1)C(=O)N[C@@H](CCCNC(=N)N)C(=O)N1CCC[C@H]1C(=O)NCC(N)=O [indium-111 labelled] | biodistribution | male athymic nude mice, DU-145 prostate cancer xenograft, lung | intravenous, 0.037 MBq, 2 h post-injection | 0.21 ± 0.04 %ID/g
N#C[C@@H]1CCCN1C(=O)CNC(=O)c1ccnc2ccc(OCCCN3CCN(C(=O)CCc4ccc5c(c4)CN4CCN6CC(=O)[O][68Ga-]([O]C(=O)C4)([O]5)[O]c4ccc(CCC(=O)N5CCN(CCCOc7ccc8nccc(C(=O)NCC(=O)N9CCC[C@H]9C#N)c8c7)CC5)cc4C6)CC3)cc12 |  | BALB/c nude mice, U-87 MG xenograft, lung | 1 h, blocking, together with: DOTA-FAPI-04 40 nmol/mouse co-injected | 3.34 ± 0.57 %ID/g
CCCC[C@H](NC(=O)COCCOCCNC(=O)CN1CCN(CC(=O)O)CCN(CC(=O)O)CC1)C(=O)N[C@H]1CC(=O)NCCCC[C@@H](C(N)=O)NC(=O)[C@H](Cc2c[nH]c3ccccc23)NC(=O)[C@H](CCCNC(=N)N)NC(=O)[C@@H](Cc2ccccc2)NC(=O)[C@H](Cc2c[nH]cn2)NC1=O [fluorine-18 labelled] |  | C57 mice, B16/F10 melanoma, pancreas | intravenous, 1 h, together with: NDP-MSH 10 µg | 0.01 ± 0.01 %ID/g
N#C[C@@H]1CCCN1C(=O)CNC(=O)c1ccnc2ccc(OCCCN3CCN(C(=O)CCc4ccc5c(c4)CN4CCN(Cc6cc(CCC(=O)O)ccc6O)CC(=O)[O][Al-]([18F])([O]C(=O)C4)[O]5)CC3)cc12 (stereo partly shown) |  | BALB/c nude mice, U-87 MG xenograft, brain | 1 h, blocking, together with: DOTA-FAPI-04 40 nmol/mouse co-injected | 0.05 ± 0.01 %ID/g
Cc1cc(C)n(CCN(CCN)CCCCCCNC(=O)[C@@H](N)Cc2c[nH]cn2)n1.[99Tc+].[C-]#[O+].[C-]#[O+].[C-]#[O+] |  | BALB/c nude mice, MCF7 xenograft, muscle | intravenous, 4 h | 0.14 ± 0.01 %IA/g
CCCC[C@H](NC(=O)CNC(=O)CNC(=O)[C@H](CCCCNC(=O)[C@H](CCN)NC(=O)C(C)c1ccc(CC(C)C)cc1)NC(=O)CN1CCN(CC(=O)O)CCN(CC(=O)O)CCN(CC(=O)O)CC1)C(=O)N[C@H]1CC(=O)NCCCC[C@@H](C(N)=O)NC(=O)[C@H](Cc2c[nH]c3ccccc23)NC(=O)[C@H](CCCNC(=N)N)NC(=O)[C@@H](Cc2ccccc2)NC(=O)[C@H](Cc2c[nH]cn2)NC1=O (stereo partly shown) [lutetium-177 labelled] |  | C57 mice, tumour-bearing, liver | 2 h | 46.4 ± 3.28 %ID/g
COc1ccc2c(c1)C(C)(C)C(/C=C/C1=C(Oc3ccc(C(=O)NCCCCOc4cc(CN(Cc5ccccn5)Cc5ccccn5)cc(CN(Cc5ccccn5)Cc5ccccn5)c4)cc3)C(=C/C=C3/N(CCCCS(=O)(=O)[O-])c4ccc(OC)cc4C3(C)C)CCC1)=[N+]2CCCCS(=O)(=O)[O-].O=[N+]([O-])[O-].O=[N+]([O-])[O-].[99Tc+].[C-]#[O+].[C-]#[O+].[C-]#[O+].[Zn+2] |  | healthy BALB/c mice, adipose | 12 h | 0.19 %ID/g
CCCC[C@H](NC(=O)CCCCCCCNC(=O)CN1CCN(CC(=O)O)CCN(CC(=O)O)CC1)C(=O)N[C@H]1CC(=O)NCCCC[C@@H](C(N)=O)NC(=O)[C@H](Cc2c[nH]c3ccccc23)NC(=O)[C@H](CCCNC(=N)N)NC(=O)[C@@H](Cc2ccccc2)NC(=O)[C@H](Cc2c[nH]cn2)NC1=O [fluorine-18 labelled] |  | C57 mice, B16/F10 melanoma, spleen | intravenous, 1 h, together with: NDP-MSH 10 µg | 0.32 ± 0.17 %ID/g
COc1ccc(Nc2nc(Nc3ccc(OCCOCCOCC[18F])cc3)ncc2Br)cc1 |  | ICR mice, S180 tumour-bearing, lung | intravenous, 370 kBq, 30 min | 4.86 ± 0.3 %ID/g
CCCC[C@H](NC(=O)CNC(=O)CNC(=O)[C@H](CCCCNC(=O)[C@H](CC(=O)O)NC(=O)C(C)c1ccc(CC(C)C)cc1)NC(=O)CN1CCN(CC(=O)O)CCN(CC(=O)O)CCN(CC(=O)O)CC1)C(=O)N[C@H]1CC(=O)NCCCC[C@@H](C(N)=O)NC(=O)[C@H](Cc2c[nH]c3ccccc23)NC(=O)[C@H](CCCNC(=N)N)NC(=O)[C@@H](Cc2ccccc2)NC(=O)[C@H](Cc2c[nH]cn2)NC1=O (stereo partly shown) [lutetium-177 labelled] |  | C57 mice, tumour-bearing, skin | intravenous, 0.037 MBq, 0.5 h | 4.37 ± 0.57 %ID/g

For quick reference, copied from above:
SMILES | assay | test system | setting | tissue uptake
CC(C)C[C@H](NC(=O)[C@@H](CCCCNC(=O)[C@@H](Cc1ccccc1)NC(=O)CCCCCCCNC(=O)CN1CCN(CC(=O)O)CCN(CC(=O)O)CCN(CC(=O)O)CC1)NC(=O)[C@H](Cc1ccc(O)cc1)NC(=O)[C@H](CO)NC(=O)[C@H](Cc1c[nH]c2ccccc12)NC(=O)[C@H](Cc1c[nH]cn1)NC(=O)[C@@H]1CCC(=O)N1)C(=O)N[C@@H](CCCNC(=N)N)C(=O)N1CCC[C@H]1C(=O)NCC(N)=O [indium-111 labelled] | biodistribution | male athymic nude mice, DU-145 prostate cancer xenograft, lung | intravenous, 0.037 MBq, 2 h post-injection | 0.21 ± 0.04 %ID/g
N#C[C@@H]1CCCN1C(=O)CNC(=O)c1ccnc2ccc(OCCCN3CCN(C(=O)CCc4ccc5c(c4)CN4CCN6CC(=O)[O][68Ga-]([O]C(=O)C4)([O]5)[O]c4ccc(CCC(=O)N5CCN(CCCOc7ccc8nccc(C(=O)NCC(=O)N9CCC[C@H]9C#N)c8c7)CC5)cc4C6)CC3)cc12 |  | BALB/c nude mice, U-87 MG xenograft, lung | 1 h, blocking, together with: DOTA-FAPI-04 40 nmol/mouse co-injected | 3.34 ± 0.57 %ID/g
